{"data": "Results from different studies", "ABCG2": "Broad substrate specificity ATP-binding cassette transporter ABCG2 (ABCG2, Homo sapiens, UniProt Q9UNQ0)", "note": "Compare with care: the assays were run in different laboratories. Several values in a cell are separate wells, animals, samples, runs or records. ± gives the spread as reported.", "UniProt Q9UNQ0, sequence (whole entry, looked up)": "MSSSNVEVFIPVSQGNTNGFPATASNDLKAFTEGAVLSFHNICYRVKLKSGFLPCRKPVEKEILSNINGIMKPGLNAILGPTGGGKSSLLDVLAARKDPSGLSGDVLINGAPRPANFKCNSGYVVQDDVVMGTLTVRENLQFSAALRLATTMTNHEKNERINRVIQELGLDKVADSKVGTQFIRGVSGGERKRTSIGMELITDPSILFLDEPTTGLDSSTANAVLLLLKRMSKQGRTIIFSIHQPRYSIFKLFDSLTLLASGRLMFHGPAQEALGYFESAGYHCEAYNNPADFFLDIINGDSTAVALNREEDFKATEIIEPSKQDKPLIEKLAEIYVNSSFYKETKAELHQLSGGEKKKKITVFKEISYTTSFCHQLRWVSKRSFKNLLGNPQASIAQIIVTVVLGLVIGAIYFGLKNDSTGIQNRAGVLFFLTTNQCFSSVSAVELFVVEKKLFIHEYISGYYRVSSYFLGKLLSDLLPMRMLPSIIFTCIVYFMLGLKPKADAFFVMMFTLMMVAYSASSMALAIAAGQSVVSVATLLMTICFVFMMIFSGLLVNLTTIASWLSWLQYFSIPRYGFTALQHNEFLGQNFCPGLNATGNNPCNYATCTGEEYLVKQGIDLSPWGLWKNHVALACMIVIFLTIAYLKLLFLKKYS"}
{"SMILES": "CC(C)C[C@@H](N)C(=O)N1CCC[C@@H]1C(=O)N[C@H](Cc1ccccc1)C(=O)N[C@H](Cc1ccccc1)C(=O)N[C@H](C)C(=O)N[C@H](CCC(=O)O)C(N)=O", "target or system": "NGF-differentiated PC-12 neurons", "setting": "10 µM, 24 h", "scale": "reference: untreated", "endpoint": "viability", "value": "99.5%"}
{"SMILES": "CC(C)(C)N1CCC(c2ccccc2)(c2ccccc2)CC1", "target or system": "Vero-E6", "assay": "CellTiter-Glo ATP", "setting": "72 h, retest 8-point duplicates", "scale": "reference: DMSO 0%, hyamine -100%, more negative, more toxic", "endpoint": "maximum response", "value": "-4.28%"}
{"SMILES": "CN1CC[C@@H](c2c(O)cc(O)c3c(=O)cc(-c4ccc(C(F)(F)F)cc4Cl)oc23)[C@@H]1CO", "assay": "refers to: Dizziness", "test system": "relapsed or refractory haematological malignancies", "setting": "oral, dose not given, all arms", "endpoint": "patients with adverse event", "value": "15%"}
{"SMILES": "CCCC(C(=O)c1ccc2c(c1)OCO2)N1CCCC1.Cl (racemic)", "assay": "LC-MS/MS", "test system": "rat, trunk blood plasma", "setting": "subcutaneous, 4 mg/kg, 40 min", "endpoint": "plasma concentration", "value": "616 ± 27.1 ng/mL"}
{"SMILES": "O=[N+]([O-])c1ccc(N2CCC(NCCC(O)c3ccc(F)c4ccccc34)CC2)c(C(F)(F)F)c1 (stereo not drawn)", "target or system": "Salmonella typhimurium", "assay": "genotoxicity, SOS/umu test", "test system": "TA1535/pSK1002", "setting": "0.004 mg/mL, 4 h, with S9, full range", "endpoint": "induction factor", "value": 0.86}
{"SMILES": "CCN(CC)C(=O)[C@@H]1C=C2c3cccc4[nH]cc(c34)C[C@H]2N(C)C1", "assay": "refers to: numbness of hands and feet", "test system": "healthy volunteers", "setting": "dose not given, 0 to 12 h", "scale": "reference: placebo, direction not given", "endpoint": "List of Complaints score", "value": 2}
{"SMILES": "[Cl-].[Cl-].[Pt+2].[Ru+2].c1ccc(-c2nc3ccccc3nc2-c2ccccn2)nc1.c1cnc2c(c1)ccc1cccnc12.c1cnc2c(c1)ccc1cccnc12", "target or system": "Danio rerio", "test system": "embryos", "setting": "75 µM, 0 h", "endpoint": "survival rate", "value": "100%"}
{"SMILES": "O=C1c2c(O)c(=O)ccn2N([C@@H]2c3ccccc3SCc3c2ccc(F)c3F)[C@@H]2COCCN12", "test system": "BALB/c mice, plasma", "setting": "oral, 0.5 mg/kg baloxavir marboxil, 4 h", "endpoint": "plasma concentration", "value": "2.08 ng/mL"}
{"SMILES": "CCN(CC)CCNC(=O)c1cc(-c2ccc(Br)s2)nc2ccccc12", "target or system": "Vero-E6", "assay": "CellTiter-Glo ATP", "setting": "72 h, first round 5-point", "scale": "reference: DMSO 0%, hyamine -100%, more negative, more toxic", "endpoint": "maximum response", "value": "-14.4%"}
{"SMILES": "COc1cccc(-c2n[nH]c(SCc3ccccn3)n2)c1OC", "target or system": "Salmonella typhimurium", "assay": "Ames test, preincubation", "test system": "TA1537", "setting": "0.13 mg/plate, without S9", "endpoint": "revertant colonies per plate", "value": 6}
{"SMILES": "COc1cc2c(Oc3ccc4[nH]c(C)cc4c3F)ccnc2cc1OCC1(N)CC1", "test system": "paediatric recurrent refractory sarcoma", "setting": "8 mg", "endpoint": "grade 3 sinus arrhythmia", "value": "0%"}
{"SMILES": "C[C@@H]1CCN(C(=O)CC#N)C[C@@H]1N(C)c1ncnc2[nH]ccc12", "target or system": "ABCG2", "assay": "transport, inhibitor", "setting": "100 µM, 5 (unit not given), pH 7, with: CCK-8", "endpoint": "inhibition", "value": "25.3%"}
{"SMILES": "CNCCN(C)c1nc(NC(C)c2ccccc2)c2ccccc2n1 (stereo not drawn)", "target or system": "Vero-E6", "assay": "CellTiter-Glo ATP", "setting": "concentration not given, 72 h, retest 8-point duplicates", "scale": "reference: DMSO 0%, hyamine -100%, more negative, more toxic", "endpoint": "cytotoxicity efficacy", "value": "0%"}
{"SMILES": "O=c1ccc2ccccc2o1", "target or system": "HepG2", "assay": "refers to: glutathione content", "setting": "concentration not given, 24 h, ATP, GSH, MMP, ROS panel", "endpoint": "probability of response", "value": "91.9%"}
{"SMILES": "Cc1cc(C)cc(-c2ccc(CN3CCCC3C(=O)NCc3cccc(F)c3)cc2)c1 (stereo not drawn)", "target or system": "Vero-E6", "assay": "CellTiter-Glo ATP", "setting": "72 h, retest 8-point duplicates", "scale": "reference: DMSO 0%, hyamine -100%, more negative, more toxic", "endpoint": "maximum response", "value": "-26.7%"}
{"SMILES": "CC[C@H]1OC(=O)[C@H](C)[C@@H](O[C@H]2C[C@@](C)(OC)[C@@H](O)[C@H](C)O2)[C@H](C)[C@@H](O[C@@H]2O[C@H](C)C[C@H](N(C)C)[C@H]2O)[C@](C)(O)C[C@@H](C)CN(C)[C@H](C)[C@@H](O)[C@]1(C)O", "target or system": "ABCG2", "assay": "transport, inhibitor", "setting": "50 µM, 5 (unit not given), pH 7, with: CCK-8", "endpoint": "inhibition", "value": "13.7%"}
{"SMILES": "CNC(=O)c1c(C)oc2cc(Oc3ccnc4cc(OCCN5CCOCC5)ccc34)ccc12", "test system": "patients", "setting": "dose not given", "scale": "reference: once daily versus twice daily", "endpoint": "systolic blood pressure", "value": "no effect"}
{"SMILES": "COc1cc2nc(N3CCN(C(=O)c4ccco4)CC3)nc(N)c2cc1OC", "target or system": "ABCG2", "assay": "transport, inhibitor", "setting": "100 µM, 5 (unit not given), pH 7, with: CCK-8", "endpoint": "inhibition", "value": "31.1%"}
{"SMILES": "CCCC(C(=O)c1ccc(O)c(OC)c1)N1CCCC1 (stereo not drawn)", "assay": "LC-MS/MS", "test system": "rat, trunk blood plasma", "setting": "subcutaneous, 2 mg/kg MDPV, 40 min", "endpoint": "plasma concentration", "value": "50 ± 5.9 ng/mL"}
{"SMILES": "CC(C)C[C@H](NC(=O)[C@H](C)NC(=O)[C@@H](NC(=O)[C@H](CCCNC(=N)N)NC(=O)[C@H](CC(C)C)NC(=O)[C@H](Cc1c[nH]c2ccccc12)NC(=O)[C@@H]1CCCN1C(=O)[C@@H](N)CCCCN)C(C)C)C(=O)N[C@@H](CS)C(=O)N1CCC[C@H]1C(=O)NCC(=O)O", "target or system": "HEp-2", "assay": "WST-1", "setting": "32 µM, 24 h", "endpoint": "viability", "value": "109% and 103% and 101%"}
{"SMILES": "CC(=O)N1CCC(C(=O)N2CCN3C(=O)c4cc(-c5ccccc5)ccc4NC(=O)C3C2)CC1 (stereo not drawn)", "target or system": "Salmonella typhimurium", "test system": "TA1535", "setting": "5000 µg/plate, with: rat liver S9", "endpoint": "revertants per plate", "value": 15.5}
{"SMILES": "CC1CCN(CCCNC(=O)c2cc(Sc3ccc(F)cc3)nc3ccccc23)CC1", "target or system": "Vero-E6", "assay": "CellTiter-Glo ATP", "setting": "72 h, second round 5-point", "scale": "reference: DMSO 0%, hyamine -100%, more negative, more toxic", "endpoint": "maximum response", "value": "-9.27%"}
{"SMILES": "CC(C)C[C@@H](N)C(=O)N[C@H](CC(C)C)C(=O)N[C@H](Cc1ccccc1)C(=O)N[C@H](Cc1ccccc1)C(=O)N[C@H](C)C(=O)N[C@H](CCC(=O)O)C(N)=O", "target or system": "NGF-differentiated PC-12 neurons", "setting": "5 µM, 24 h", "scale": "reference: untreated", "endpoint": "viability", "value": "100%"}
{"SMILES": "CCn1c2ccccc2c2cc(CN3CCN(Cc4cccc(Cl)c4)CC3)ccc21", "target or system": "Vero-E6", "assay": "CellTiter-Glo ATP", "setting": "72 h, retest 8-point duplicates", "scale": "reference: DMSO 0%, hyamine -100%, more negative, more toxic", "endpoint": "maximum response", "value": "-3.35%"}
{"SMILES": "C[C@H]1CN(N=O)CCc2ccc(Cl)cc21", "target or system": "TK6", "setting": "1.25 µM, 4 h, with: hamster liver S9", "scale": "reference: vehicle", "endpoint": "relative survival", "value": "99.6%"}
{"SMILES": "COc1cccc(-c2ccccc2NC(=O)C2CCN(Cc3ccccc3F)CC2)c1", "target or system": "Vero-E6", "assay": "CellTiter-Glo ATP", "setting": "72 h, retest 8-point duplicates", "scale": "reference: DMSO 0%, hyamine -100%, more negative, more toxic", "endpoint": "maximum response", "value": "-0.611%"}
{"SMILES": "Cc1cc(C(=O)NC(C)(C)COc2cccc3c2C(N)=NS(=O)(=O)N3)cc(C)n1", "target or system": "Salmonella typhimurium", "assay": "Ames test, initial", "test system": "TA1537", "setting": "1500 µg/plate, with: rat liver S9", "scale": "reference: solvent control", "endpoint": "revertant ratio", "value": 1.1}
{"SMILES": "O=C(NCc1ccccc1Cl)C1CCCN(Cc2cccc(-c3ccc(F)cc3F)c2)C1 (stereo not drawn)", "target or system": "Vero-E6", "assay": "CellTiter-Glo ATP", "setting": "72 h, retest 8-point duplicates", "scale": "reference: DMSO 0%, hyamine -100%, more negative, more toxic", "endpoint": "maximum response", "value": "-18.1%"}
{"SMILES": "CC(=O)c1c(C)c2cnc(Nc3ccc(C4CCN(CCS(C)(=O)=O)CC4)cn3)nc2n(C2CCCC2)c1=O", "test system": "HR+/HER2- advanced breast cancer patients", "setting": "oral, dose not given, all grades, total", "endpoint": "patients with platelet count decreased", "value": "27.2%"}
{"SMILES": "COc1ccc2cc1Oc1ccc(cc1)C[C@H]1c3cc(c(OC)cc3CCN1C)Oc1c(OC)c(OC)cc3c1[C@H](C2)N(C)CC3", "target or system": "ABCG2", "assay": "transport, inhibitor", "setting": "10 µM, 5 (unit not given), pH 7, with: CCK-8", "endpoint": "inhibition", "value": "8.1%"}
{"SMILES": "C[C@]1(CO)Cc2ncn(-c3ccc(C#N)c(Cl)c3)c2C(=O)O1", "test system": "healthy Japanese adults, plasma", "setting": "40 mg once daily, multiple dose", "endpoint": "Tmax at steady state", "value": "1 h"}
{"SMILES": "CN/C(=N\\[N+](=O)[O-])NCc1cnc(Cl)s1", "test system": "soil", "setting": "0 days, nominal 0.12", "endpoint": "recovery", "value": "58%"}
{"SMILES": "CO[C@H]1C[C@@H]2CC[C@@H](C)[C@@](O)(O2)C(=O)C(=O)N2CCCC[C@H]2C(=O)O[C@H]([C@H](C)C[C@@H]2CC[C@@H](OC(=O)NCCOCCOCCOCCOCCOCCOCCOCCOCCC(=O)N3CCc4cc(Cn5nc(-c6ccc7oc(N)nc7c6)c6c(N)ncnc65)ccc4C3)[C@H](OC)C2)C[C@@H](O)[C@H](C)/C=C(\\C)[C@@H](O)[C@@H](OC)C(=O)[C@H](C)C[C@H](C)/C=C/C=C/C=C/1C", "assay": "phase 1 dose escalation", "test system": "advanced solid tumour patients", "setting": "intravenous, 16 mg weekly, any grade", "endpoint": "any SAE incidence", "value": "50%"}
